Measured values collected from several papers.
Numbered parts are unrelated; each lists some results of a single study. Changes are numbered by the printed parent chain.

Block 1 — technique: RNA Bind-n-Seq; molecule type: RNA; sample: in vitro; concentration: not given; relative to: input RNA pool; direction: higher = stronger binding
Target: RING finger protein unkempt homolog, zinc fingers 1-6, GST-SBP tag (UNK, Homo sapiens, UniProt Q9C0B0, residues 30-357)
Sequence of UniProt Q9C0B0 (30-357, looked up): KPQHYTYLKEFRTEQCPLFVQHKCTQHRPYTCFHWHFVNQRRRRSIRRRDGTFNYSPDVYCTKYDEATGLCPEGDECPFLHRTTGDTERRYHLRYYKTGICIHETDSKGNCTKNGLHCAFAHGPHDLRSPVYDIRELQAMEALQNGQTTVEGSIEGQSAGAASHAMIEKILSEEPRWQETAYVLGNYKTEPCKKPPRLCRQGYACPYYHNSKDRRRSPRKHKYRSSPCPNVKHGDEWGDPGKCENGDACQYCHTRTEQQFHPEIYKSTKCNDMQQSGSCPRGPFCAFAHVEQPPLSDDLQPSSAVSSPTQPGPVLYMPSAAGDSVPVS
Setting: RNA with constant flanks, human and mouse sites, ends assumed
All sequences stand within: GGGAGUUCUACAGUCCGACGAUC … CAACAGAGGAUUGAGCAUCA
Sequence | bound/input enrichment [ratio]
UCCAGCCCCCACUUCCUCCUGGGCUCCAGUGUCCAGCCAGGGCCAGGGAAGGGAGCCACAGAGUUAACGUUUUUCUAACCUUGCUACUUGGAGGGAAGGGAAGGUUGGGGGAGAGGCCUG | 0.136
UCAACUCUAGCCAAGGAGGCAGAAAGGAAUUCUUAUCGCCUAAGCUGGGGCACUGAGAACUUAGACAACGUGGCUCUUUCUUCUAGUCCUAUUCAUUCAGGUUUCCUGGUUAGUUUUAUG | 10.1
GAUGCAGUUAAGGAAGAAAAUCUGAAGCUAAAAUCAGAAAACCAAGUUCUUGGACAAUAUAUAGAAAAUCUCAUGUCAGCUUCUAGUGUUUUUCAAACAACUGACACAAAAAGCAAAAGA | 0.313
GGUGAAAAAUCAAAUGCCAAAAUAAAGGAUGAAGAUCAUAGUCCAACAUUUGAAAAUUCAGAUUGCACACUGAAAAAAAUGGAUAAAGAAGGUAAAACAUUAAAAAAACAUAAAUUGAAG | 0.631
GGAAGAGUUGGGCUGUGGAAGGACAUCUUCACCGUCUCCAUGAACGAGAAGUUUGAUCUAGUGUACAAACAGAAGAUGGGGAAGUGUGACCUCACGUUUGACUUUUAUCUAUAAUACCAG | 0.202
UUCUCCAGCUGCUUUUGCUAUAAGCAUUAUUGUAAGAGUAUCUCAAGCAGGGGUCGUUACAACCGUGAUUUGGAACAGGAUGAAGCAUUUAUUCCAGUAGGAGAAUCAUUGAAAGACCUG | 0.186
UCCUUUCAGUUUUUAUUAAUCUACUGUAUCAAUAAAAUUCUGUAAUUUGAAUGAGUUUUUAAUAGUCUAGAAUGUUAUUGUGUAUAGAUAUUUCCUCUUGAACGUUAUGUUCAGAAAAUG | 4.31
AGUGAAAAUAUUUCUGCAGCUAUCCAAGCUAAUGGUGAAAUGGUUACAAAGCAACCAUUGAUUAGAAGUAUGCGAACUGUAAAAAGGGAAACUUUAAAGUUAAUAUCUGGUUGGGUGAGC | 0.317

Block 2 — technique: protein-binding microarray; molecule type: double-stranded DNA, one strand shown; sample: in vitro; concentration: 250 nM; setting: 60-bp whole probe; added: salmon DNA 0.4 mg/ml; relative to: random background probes; direction: higher = stronger binding; all sequences stand within: GCCTAGCAC … GTCTTGATTCGCTTGACGCTGCTG
Target: Interferon regulatory factor 5, full length, phosphomimetic (IRF5, Homo sapiens, UniProt Q13568-2, residues 1-514, K96S/S451D/S453D/S456D/S462D)
Sequence | log fluorescence
GACGATTTCAGTTTCAAGACGTGCTAG | 2.64 z-score
TGGAGTCTCTGTTCTTTTCAGTGCTAG | 0.718 z-score
GACGGTATCCTACTTCTGACGTGCTAG | -0.19 z-score
GACTATATCAGTTTCGAGACGTGCTAG | 6.25 z-score
GACGAACTGAGACTTGAGACGTGCTAG | -0.474 z-score
GACGAACTGGGGTATCGACACGTGCTA | 0.184 z-score
TTAGGTTCCCTTTTCCTTTAGTGCTAG | 0.203 z-score
GACGATATCGGGACTTGAGACGTGCTA | 0.757 z-score

Further values, each from its own experiment
P1: viral docking peptide; CKVKRKLFGSENI; partner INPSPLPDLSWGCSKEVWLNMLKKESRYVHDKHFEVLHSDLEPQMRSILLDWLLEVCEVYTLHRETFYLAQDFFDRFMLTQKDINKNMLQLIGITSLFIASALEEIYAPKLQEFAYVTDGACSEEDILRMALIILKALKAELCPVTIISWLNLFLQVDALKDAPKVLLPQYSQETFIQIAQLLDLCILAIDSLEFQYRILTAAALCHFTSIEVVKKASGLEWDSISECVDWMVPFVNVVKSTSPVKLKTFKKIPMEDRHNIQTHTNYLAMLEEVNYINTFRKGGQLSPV
Substance | target or system | test | system | conditions | how to read | quantity | value
MYH9 (Homo sapiens, UniProt P35579) | MYH10 (Homo sapiens, UniProt P35580) | cross-linking MS | cell fractions | added: DSSO | – | cross-linked residues | K1815 to K1925
P1 C1A | CCNE2, cyclin fold, Cln2 fusion (human) | yeast growth competition, sequencing | yeast | strong parent motif | relative to: not given, higher = stronger binding | normalised enrichment score | 3.76
SPTLC1 (Homo sapiens, UniProt O15269) | HDAC10 (Homo sapiens, UniProt Q969S8) | cross-linking MS | cell fractions | added: DHSO | – | cross-linked residues | E400 to E67
SLC39A11 (Homo sapiens, UniProt Q8N1S5) | MACF1 (Homo sapiens, UniProt Q9UPN3) | cross-linking MS | cell fractions | added: DSSO | – | cross-linked residues | K163 to K3807
EIF3CL (Homo sapiens, UniProt B5ME19) | EIF3A (Homo sapiens, UniProt Q14152) | cross-linking MS | – | hits only | – | interaction screen | cross-linked

Repeated from above (block 2):
Sequence | log fluorescence
TTAGGTTCCCTTTTCCTTTAGTGCTAG | 0.203 z-score
GACGATATCGGGACTTGAGACGTGCTA | 0.757 z-score
